Measurements pooled from the literature.
± gives the spread as reported.

| SMILES | assay | test system | setting | how to read | quantity | value |
| --- | --- | --- | --- | --- | --- | --- |
| S=c1oc(-c2ccccc2)nn1CN1CCN(Cc2ccccc2)CC1 |  | Wistar rat female | oral, 300 mg/kg, acute toxicity OECD 423 |  | serum AST | 120 ± 13.4 U/L |
| CC(=O)c1c(C)c2cnc(Nc3ccc(C4CCN(CCS(C)(=O)=O)CC4)cn3)nc2n(C2CCCC2)c1=O |  | human, dose-escalation trial, plasma | oral, 150 mg twice daily, day 21, multiple doses |  | clearance | 961 mL/min |
| CC(C)[C@@H]1NC(=O)CNC(=O)[C@H](CC(N)=O)NC(=O)[C@H](CCCNC(=N)N)NC(=O)[C@H](Cc2ccc(O)cc2)NC(=O)[C@H](C(C)C)NC(=O)[C@@H](NC(=O)[C@@H](NC(=O)[C@H](CC(N)=O)NC(=O)[C@H](Cc2c[nH]c3ccccc23)NC(=O)[C@H](C)NC(=O)[C@H](Cc2ccccc2)NC(=O)CN)C(C)C)CSSC[C@@H](C(=O)N[C@@H](Cc2cnc[nH]2)C(=O)N[C@@H](CCCNC(=N)N)C(=O)N[C@@H](CCCNC(=N)N)C(=O)N[C@@H](C)C(=O)N[C@@H](CC(N)=O)C(N)=O)NC(=O)[C@H](C(C)C)NC(=O)[C@H](CCCNC(=N)N)NC1=O |  | ICR mice, blood | intraperitoneal, 5 mg/kg, day 5 |  | basophils | 1.46 ± 0.16% |
| CNC(=O)c1cc(Oc2ccc(NC(=O)Nc3cc(C(C)(C)C)nn3-c3ccc4ncccc4c3)c(F)c2)ccn1 | ejection fraction decreased, NCI CTC v3.0 | human patients | oral, all dose levels |  | related SAE | 2% |
| O=C(O)CCC(CP(=O)(O)O)C(=O)O (centres unmarked) |  | rat plasma | 0.3 µg/mL, freeze-thaw cycle 2 at -80 °C |  | measured concentration | 0.318 ± 0.017 µg/mL |
| CCc1ccc(CC/C=C/c2ccc3c(c2)C(=O)CC3)cc1 |  | Sprague-Dawley rat, female | oral, 120 mg/kg/day, 14 days |  | Eosinophil percentage | 0.97% |
| CC(C)n1c(/C=C/C(O)CC(O)CC(=O)O)c(-c2ccc(F)cc2)c2ccccc21 (centres unmarked) |  | human | oral, 20 mg, alone, control phase |  | Vss/F | 280 ± 121 L |
| COc1ncccc1-c1cnn2ccc(N3CCN(C(=O)OC(C)C)CC3)nc12 |  | rat, CCI cold allodynia model, plasma | oral, 10 mg/kg, 240 min |  | free drug concentration | 28 nM |
| C[C@H]1COCCN1c1nc(NCc2cccnc2C(F)(F)F)c2cccnc2n1 |  | anaesthetized rat | intravenous, 10 mg/kg | relative to: control | QRS change | 11.5% |
| CN1CCN(S(=O)(=O)c2cc([N+](=O)[O-])ccc2N(CCOS(C)(=O)=O)CCOS(C)(=O)=O)CC1 |  | NSG mice female, plasma | intraperitoneal, 10 mg/kg, 1.5 h |  | concentration | 20 nM |
| CC(C)(O)c1cc(Nc2cc(Oc3cn(C4CC4)nc3C3CCOCC3)ccn2)ccn1 |  | grade 4 glioma expansion cohort | oral, 50 mg |  | headache, any grade | 25% |
| C[C@]1(CO)Cc2ncn(-c3ccc(C#N)c(Cl)c3)c2C(=O)O1 |  | healthy humans | concentration not given, food-effect part total |  | drug-related Headache incidence | 25% |
| C[C@@H](NC(=O)N1C(=O)[C@H](Cc2ccnc(N)c2)[C@H]1C(=O)O)C1CCCCC1 |  | healthy adult Chinese volunteers | continuous intravenous infusion, 0.6 mg/kg/h, 5-day infusion, CTCAE 5.0 grading |  | incidence of infusion site pain | 0% |
| O=[N+]([O-])c1ccc2c(c1)S(=O)(=O)C=C2 | flow cytometry | male C57BL/6 mice, spleen | i.p., 10 mg/kg, 8 days | relative to: CD45+ cells | CD8+ cells | 11.4% |
| CCCC(CCC)NC(=O)c1ccc2c(c1)OCO2 |  | Swiss albino CD-1 mice, male, bone marrow | intraperitoneal, 700 mg/kg, 24 h |  | PCE/NCE ratio | 0.8 |
| CC(C)C[C@@H](NC(=O)CNC(=O)[C@@H](CCCCN)NC(=O)[C@@H](CC(C)C)NC(=O)[C@@H](CCCCN)NC(=O)[C@@H](CCCNC(=N)N)NC(=O)[C@@H](CC(C)C)NC(=O)[C@@H](CC(C)C)NC(=O)[C@@H](CCCNC(=N)N)NC(=O)[C@H](N)CCCNC(=N)N)C(=O)N[C@H](CCCCN)C(=O)N[C@H](CCCCN)C(=O)N[C@H](Cc1ccc(O)cc1)C(=O)N[C@H](CC(C)C)C(=O)N[C@H](Cc1ccc(O)cc1)C(=O)N[C@H](Cc1ccccc1)C(=O)N[C@H](CCCCN)C(=O)N[C@H](CC(C)C)C(=O)N[C@H](CCC(N)=O)C(=O)N[C@H](CC(C)C)C(=O)N[C@H](CC(C)C)C(=O)N[C@H](CCCCN)C(=O)N[C@H](CCCCN)C(N)=O | analytical RP-HPLC C18 |  |  |  | HPLC retention time | 14.7 min |
| COc1cc2c(Oc3ccc4[nH]c(C)cc4c3F)ccnc2cc1OCC1(N)CC1 |  | paediatric recurrent refractory sarcoma | concentration not given, whole group |  | grade 1 or 2 Leukopenia | 20.6% |
| CCC[C@@](N)(CO)CCc1ccc(OCCCCCC(C)C)cc1 |  | dog | oral, 5 mg/kg |  | Tmax | 6 h |

| SMILES | assay | test system | setting | how to read | quantity | value |
| --- | --- | --- | --- | --- | --- | --- |
| Cn1cc(-c2nc(N[C@@H]3CCCC[C@@H]3N)c(F)c3c2C(=O)NC3)cn1 | any bleeding | patients with relapsed or refractory AML | oral, 60 mg once daily |  | adverse events | 75% |
| CC[C@H](C)[C@H](NC(=O)[C@H](Cc1ccccc1)NC(=O)[C@H](CCC(=O)O)NC(=O)[C@H](CCCNC(=N)N)NC(=O)[C@H](C)NC(=O)[C@H](C)NC(=O)[C@H](CCC(N)=O)NC(=O)[C@H](CCC(=O)O)NC(=O)[C@H](CCC(=O)O)NC(=O)[C@H](CC(C)C)NC(=O)[C@H](Cc1ccc(O)cc1)NC(=O)[C@H](CO)NC(=O)[C@H](CO)NC(=O)[C@@H](NC(=O)[C@H](CC(=O)O)NC(=O)[C@H](CO)NC(=O)[C@@H](NC(=O)[C@H](Cc1ccccc1)NC(=O)[C@@H](NC(=O)CNC(=O)[C@H](CCC(=O)O)NC(=O)[C@H](C)NC(=O)CCc1cnc[nH]1)[C@@H](C)O)[C@@H](C)O)C(C)C)C(=O)N[C@@H](C)C(=O)N[C@@H](Cc1c[nH]c2ccccc12)C(=O)N[C@@H](CC(C)C)C(=O)N[C@H](C(=O)N[C@@H](CCCNC(=N)N)C(=O)NCC(=O)N[C@@H](CCCNC(=N)N)C(=O)N[C@@H](CCCCNC(=O)COCCOCCNC(=O)COCCOCCNC(=O)CC[C@H](NC(=O)CCCCCCCCCCCCCCCCC(=O)O)C(=O)O)C(=O)NCC(=O)NCC(=O)N[C@@H](CO)C(=O)N[C@@H](CCCCNC(=O)[C@H](CCCCNc1c(NCCCCCN(O)C(=O)CCC(=O)NCCCCCN(O)C(=O)CCC(=O)NCCCCCN(O)C(C)=O)c(=O)c1=O)Nc1c(NCCCCCN(O)C(=O)CCC(=O)NCCCCCN(O)C(=O)CCC(=O)NCCCCCN(O)C(C)=O)c(=O)c1=O)C(=O)O)C(C)C [zirconium-89 labelled] | ex vivo gamma counting | male Sprague-Dawley rats, blood | intravenous, 1 nmol, 24 h |  | tissue uptake | 0.363 %ID/g |
| O=C(Nc1ccccc1)C1CCN(C(=O)Oc2cccnc2)CC1 | adverse event reporting | healthy women | oral, 60 mg, 7 days |  | subjects with disturbance in attention | 14.3% |
| CCCCCCCCCCCCCCCC(=O)N[C@@H](CCC(=O)NCCCC[C@H](NC(=O)[C@H](CC(=O)O)NC(=O)[C@H](CO)NC(=O)[C@@H](NC(=O)[C@H](Cc1ccccc1)NC(=O)[C@@H](NC(=O)CNC(=O)[C@H](CCC(N)=O)NC(=O)[C@H](CO)NC(=O)[C@@H](N)Cc1c[nH]cn1)[C@@H](C)O)[C@@H](C)O)C(=O)N[C@@H](CO)C(=O)N[C@@H](CCC(=O)O)C(=O)N[C@@H](Cc1ccc(O)cc1)C(=O)N[C@@H](CC(C)C)C(=O)N[C@@H](CC(=O)O)C(=O)N[C@@H](CO)C(=O)N[C@@H](CCC(=O)O)C(=O)N[C@@H](CCCNC(=N)N)C(=O)N[C@@H](C)C(=O)N[C@@H](CCCNC(=N)N)C(=O)N[C@@H](CC(=O)O)C(=O)N[C@@H](Cc1ccccc1)C(=O)N[C@H](C(=O)N[C@@H](C)C(=O)N[C@@H](Cc1c[nH]c2ccccc12)C(=O)N[C@@H](CC(C)C)C(=O)N[C@@H](CCC(=O)O)C(=O)N[C@@H](C)C(=O)NCC(=O)NCC(=O)O)C(C)C)C(=O)O | refers to: Dizziness | humans CrCl at least 90 mL/min | subcutaneous, 100 µg single dose |  | treatment-related adverse events | 0% |
| O=S(=O)(Nc1ccccc1)c1ccc(NC(=S)Nc2ccccc2)cc1 |  | male mice, heart | oral, 80 mg/kg daily 14 days | relative to: body weight | relative organ weight | 0.51% |
| CO[C@H]1C[C@@H]2CC[C@@H](C)[C@@](O)(O2)C(=O)C(=O)N2CCCC[C@H]2C(=O)O[C@H]([C@H](C)C[C@@H]2CC[C@@H](OC(=O)NCCOCCOCCOCCOCCOCCOCCOCCOCCC(=O)N3CCc4cc(Cn5nc(-c6ccc7oc(N)nc7c6)c6c(N)ncnc65)ccc4C3)[C@H](OC)C2)C[C@@H](O)[C@H](C)/C=C(\C)[C@@H](O)[C@@H](OC)C(=O)[C@H](C)C[C@H](C)/C=C/C=C/C=C/1C |  | patients with advanced solid tumours | intravenous, 10 mg weekly, grade 3 or higher |  | constipation incidence | 0% |
| CC(C)n1c(C2CCNCC2)nc2c([N+](=O)[O-])c(Br)c(Br)cc21 |  | patients with AML | 125 mg, AST increased |  | AE leading to interruption | 2% |
| CC(C)(c1ccccc1)c1cc(-n2nc3ccccc3n2)c(O)c(C(C)(C)c2ccccc2)c1 | exposure assessment | human, age 3-6 years, sunscreen |  |  | dermal uptake | 0.6 ng/kg body weight/day |
| COc1ccc2nc3cc(Cl)ccc3c(Nc3cc(CN4CCCC4)c(O)c(CN4CCCC4)c3)c2n1 |  | mouse, blood | intraperitoneal, 28 mg/kg |  | red cell distribution width (CV) | 13.6% |
| CC(=O)N(C)[C@H]1CCN(C(=O)c2cnc3c(c2)C[C@](C)(c2ccc(F)cc2)N3)C1 | refers to: eye irritation | human | oral, dose not given, together with: midazolam |  | adverse event duration | 15 days |
| CN[C@H](CC(C)C)C(=O)N[C@H]1C(=O)N[C@@H](CC(N)=O)C(=O)N[C@H]2C(=O)N[C@H]3C(=O)N[C@H](C(=O)N[C@H](C(=O)O)c4cc(O)cc(O)c4-c4cc3ccc4O)[C@H](O)c3ccc(c(Cl)c3)Oc3cc2cc(c3O[C@@H]2O[C@H](CO)[C@@H](O)[C@H](O)[C@H]2O[C@H]2C[C@](C)(N)[C@H](O)[C@H](C)O2)Oc2ccc(cc2Cl)[C@H]1O |  | mouse | intravenous |  | maximum tolerated dose | 300 mg/kg |
| C[C@]12CC[C@H](O)CC1=CC[C@@H]1[C@@H]2CC[C@]2(C)C(n3cnc4ccccc43)=CC[C@@H]12.Cl |  | male CD-1 mice, plasma | 10 mg/kg oral vs 1 mg/kg intravenous |  | oral bioavailability | 5.88% |
| COc1cc(C(=O)NC2CCN(C)CC2)c(F)cc1Nc1ncc(C(F)(F)F)c(Oc2cccc3c2C(=O)N(C)C3)n1 |  | human patients, urine | oral, 200 mg single dose, geometric mean | relative to: dose | fraction excreted in urine (0-48 h) | 9.08% |
| CC1(C)C(C=C(Cl)Cl)C1C(=O)OC(C#N)c1ccc(F)c(Oc2ccccc2)c1 (centres unmarked) | refers to: CYP3A5 | human, age 6 months, recombinant human CYP3A5 | 0.1 µM |  | enzyme contribution to clearance | 0.21% |
| [O-][S+]1CCc2nc(N3CCC(c4ncc(Cl)cn4)CC3)nc(NC3(CO)CCC3)c21 (centres unmarked) | refers to: Headache | healthy male humans | 48 mg single dose |  | adverse event incidence | 50% |
| Nc1nc2cc(-c3ccc4ncc(C(=O)N5CCOCC5)n4c3)ccc2o1 | refers to: Hyperglycemia | advanced solid tumour patients | dose not given |  | patients with adverse event | 8% |
| O=c1ccc2ncc(=O)n3c2n1C[C@H]3CN1CCC(NCc2cc3c(cn2)OCCC3)CC1 |  | healthy human volunteers | oral, 1500 mg, rifampicin cohort, together with: rifampicin 600 mg |  | incidence of nervous system disorders | 12% |
